{"data": "Experimental data pooled from the literature", "note": "Each line is one published result; not all experiments were run side by side."}
{"SMILES": "O=C(CNc1ccc(Cl)c(S(=O)(=O)N2CCOCC2)c1)Nc1ccc(F)c(Cl)c1", "medium": "water", "kinetic solubility": "79 µM"}
{"SMILES": "COc1cccc(CNC[C@@](O)(COCc2ccccc2)[C@@H]2CC[C@@H](C)C[C@H]2OCc2ccccc2)c1", "medium": "PBS", "time": "2 h", "pH": "pH 7.4", "kinetic solubility": "68.4 µM"}
{"SMILES": "CCOC(=O)C12CC(N)(C1)C2", "medium": "PBS", "pH": "pH 7.4", "kinetic solubility": "319 µM"}
{"SMILES": "COc1ccc(CNC[C@@](O)(COCc2ccccc2)[C@@H]2CC[C@@H](C)C[C@H]2OCc2ccccc2)cc1", "medium": "PBS", "time": "2 h", "pH": "pH 7.4", "kinetic solubility": "6.1 µM"}
{"SMILES": "COc1ccc(-c2csc(N/N=C(\\C)c3cc(O)cc(O)c3)n2)cc1", "technique": "HPLC", "medium": "aqueous buffer", "time": "2 h", "pH": "pH 7.4", "temperature": "24 °C", "kinetic solubility": "> 12.5 µM"}
{"SMILES": "COc1cncc(-c2cc(F)cc(CNC(=O)c3cc(N4CC[C@@](C#N)(C5CC5)C4=O)cc(C)n3)c2)c1", "technique": "nephelometry", "medium": "aqueous buffer", "time": "30 min", "pH": "pH 6.5", "kinetic solubility": "< 1.6 µg/mL"}
{"SMILES": "CCc1c(C(=O)Nc2ccc3c(c2)CN(C2CCC(=O)NC2=O)C3=O)[nH]c2c(CN)cccc12 (stereo not drawn)", "medium": "PBS", "time": "18 h", "pH": "pH 7.4", "kinetic solubility": "3.7 µM"}
{"SMILES": "Cc1ccc(NCC(=O)Nc2nccs2)cc1S(=O)(=O)N1CCOCC1", "medium": "water", "kinetic solubility": "> 250 µM"}
{"SMILES": "COc1ccc(CNC[C@@](O)(COCc2ccc(OC)cc2)[C@@H]2CC[C@@H](C)C[C@H]2OCc2ccc(OC)cc2)cc1", "medium": "PBS", "time": "2 h", "pH": "pH 7.4", "kinetic solubility": "117 µM"}
{"SMILES": "COc1cnc2cccc(N3CCc4c(cc(Cn5ccnc5)cc4-c4cn(C)nc4C(F)(F)F)C3=O)c2c1", "medium": "PBS", "time": "1 h", "pH": "pH 7.4", "kinetic solubility": "73 µM"}
{"SMILES": "C[C@@H]1CC[C@@H]([C@](O)(CNCc2cccc(F)c2)COCc2ccccc2)[C@H](OCc2ccccc2)C1", "medium": "PBS", "time": "2 h", "pH": "pH 7.4", "kinetic solubility": "20.9 µM"}
{"SMILES": "Cc1ccc(NCC(=O)Nc2cccc(Cl)c2)cc1S(=O)(=O)N1CCOCC1", "medium": "water", "kinetic solubility": "219 µM"}
{"SMILES": "COc1ccc(COC[C@](O)(CNCc2ccccc2)[C@@H]2CC[C@@H](C)C[C@H]2OCc2ccc(OC)cc2)cc1", "medium": "PBS", "time": "2 h", "pH": "pH 7.4", "kinetic solubility": "92 µM"}
{"SMILES": "Cc1ccc(N(C)CC(=O)Nc2ccc(F)c(Cl)c2)cc1S(=O)(=O)N1CCOCC1", "medium": "water", "kinetic solubility": "142 µM"}
{"SMILES": "Cc1cc(N2CCC(C#N)(C3(C)CC3)C2=O)cc(C(=O)NCc2cc(F)cc(-c3cnn(C)c3)c2)n1 (racemic)", "technique": "nephelometry", "medium": "aqueous buffer", "time": "30 min", "pH": "pH 6.5", "kinetic solubility": "< 1.6 µg/mL"}
{"note": "Excerpt of the above:"}
{"SMILES": "O=C(CNc1ccc(Cl)c(S(=O)(=O)N2CCOCC2)c1)Nc1ccc(F)c(Cl)c1", "medium": "water", "kinetic solubility": "79 µM"}
{"SMILES": "COc1cccc(CNC[C@@](O)(COCc2ccccc2)[C@@H]2CC[C@@H](C)C[C@H]2OCc2ccccc2)c1", "medium": "PBS", "time": "2 h", "pH": "pH 7.4", "kinetic solubility": "68.4 µM"}
